# Published values pooled from the literature.
# Numbered parts are unrelated; each lists some results of a single study.

# Set 1
# Target: Hepatocyte nuclear factor 3-beta, forkhead domain (FOXA2, Homo sapiens, UniProt Q9Y261, residues 142-269)
# Technique: protein-binding microarray
# Molecule type: double-stranded DNA, one strand shown
# Matrix: in vitro
# Concentration: not given
# Notes: k-mer, scored over probes, only values ≥0.25
# Direction: higher = stronger binding
# Construct (chain): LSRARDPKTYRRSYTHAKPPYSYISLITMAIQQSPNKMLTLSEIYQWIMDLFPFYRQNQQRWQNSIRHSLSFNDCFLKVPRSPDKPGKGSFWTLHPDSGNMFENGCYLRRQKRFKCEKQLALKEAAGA
Sequence,E-score
CTTGTATA,0.322
AGTTACAC,0.252
GATACGGA,0.28
ACTGTATA,0.356
TGCAAACA,0.323
ACGTTTTA,0.272
GTCATTAA,0.36
CTAAATAA,0.295
GTAAATAC,0.306
AACTAATG,0.258
AATGTTAC,0.257

# Set 2
# Target: Prothrombin, mature alpha-thrombin (F2, Homo sapiens, UniProt P00734)
# Technique: aptamer microarray, sandwich
# Molecule type: DNA with 2'F-ANA
# Matrix: in vitro
# Concentration: 200 nM
# Notes: whole 15-mer aptamer, many near background
# Together with: Cy3 exosite-II aptamer, 400 nM
# Direction: higher = stronger binding
# Sequence: GGTTGGTGTGGTTGG
Modification,mean fluorescence intensity [a.u.]
2'F-ANA at 2 3 5 7 8 9 10 12 13,57
2'F-ANA at 1 2 8 10 11 12 14 15,47.3
2'F-ANA at 1 3 6 7 8 9 10 11 12 14 15,67.7
2'F-ANA at 1 5 6 7 8 11 13 14,45.5
2'F-ANA at 2 4 5 6 8 10 13,48.1
2'F-ANA at 1 2 3 6 9 10 11 13 15,64.3
2'F-ANA at 4 6 7 9 11 12 13 15,234
2'F-ANA at 1 3 4 6 8 10 11 13 14 15,53
2'F-ANA at 1 5 9 11 14 15,47.4
2'F-ANA at 2 3 4 8 11 12 14,329
2'F-ANA at 1 4 5 6 7 8 10 11 15,49.5
2'F-ANA at 1 3 5 7 8 14,182
2'F-ANA at 2 4 5 7 9 10 11,48.9
2'F-ANA at 2 3 6 12 13 15,823
2'F-ANA at 3 4 5 7 9 10 12 13,54.3
2'F-ANA at 2 3 5 6 9 13 15,60.2
2'F-ANA at 1 5 8 9 10 11,53.6
2'F-ANA at 1 3 4 6 8 12,488
2'F-ANA at 1 3 4 14 15,78.9

# Set 3
# Target: Histone acetyltransferase KAT6A, winged helix 2, GST fusion (KAT6A, Homo sapiens, UniProt Q92794, residues 85-181)
# Technique: protein binding microarray
# Molecule type: double-stranded DNA, one strand shown
# Matrix: in vitro
# Concentration: not given
# Notes: 8-mer, flanks averaged, mean of 2 arrays, mostly near background
# Reference: not given
# Direction: higher = stronger binding
# Residues (chain): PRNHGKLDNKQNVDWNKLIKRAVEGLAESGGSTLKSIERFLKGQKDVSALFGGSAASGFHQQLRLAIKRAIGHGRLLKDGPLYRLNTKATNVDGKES
Sequence,E-score
CCGCCAAC,0.135
AGAGGCAC,0.0253
AACTTGCA,0.0104
ACATACAA,-0.074
AGTGGTAG,-0.163
CAATACCC,-0.0802
AGGGTTAA,-0.0926
AGTGCGCG,-0.0137
ACGGGAGT,0.0593
AGACCCGA,0.098
CGATTGAA,-0.0873
GCCAGAGC,0.0465
GCTCTGCA,-0.00994
CTAATAAA,0.0868
AGTTTATC,0.0765
GTAGAGAA,-0.0762
CTAGTAAC,-0.201
CCCGGGCC,0.236
ACCGCATG,0.0675
AGAAGTAG,-0.0944
AGCGTTAG,-0.0681
GCCTGGGA,0.0803
ACCGAGCA,0.187

# Set 4
# Target: Ras GTPase-activating protein-binding protein 1, RRM domain (G3BP1, Homo sapiens, UniProt Q13283)
# UniProt Q13283, sequence (whole entry, looked up): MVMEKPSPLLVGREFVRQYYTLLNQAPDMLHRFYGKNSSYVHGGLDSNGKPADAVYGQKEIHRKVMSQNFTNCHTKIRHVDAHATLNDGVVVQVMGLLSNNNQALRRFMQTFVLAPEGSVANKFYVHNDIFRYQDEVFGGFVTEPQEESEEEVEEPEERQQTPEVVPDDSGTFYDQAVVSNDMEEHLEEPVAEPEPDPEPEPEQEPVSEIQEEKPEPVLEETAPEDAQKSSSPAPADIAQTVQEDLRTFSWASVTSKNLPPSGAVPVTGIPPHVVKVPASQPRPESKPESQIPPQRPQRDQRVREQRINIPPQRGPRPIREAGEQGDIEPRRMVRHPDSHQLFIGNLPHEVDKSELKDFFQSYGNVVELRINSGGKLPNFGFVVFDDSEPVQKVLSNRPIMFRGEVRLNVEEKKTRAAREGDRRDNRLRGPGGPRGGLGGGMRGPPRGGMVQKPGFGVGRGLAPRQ
# Technique: RNA Bind-n-Seq
# Molecule type: RNA
# Matrix: in vitro
# Concentration: 1 µM
# Notes: whole 134-nt RNA, ends assumed
# Together with: 150 mM KCl
# Reference: input library
# Direction: higher = stronger binding
# All sequences stand within: GGGAGUUCUACAGUCCGACGAUC … UGGAAUUCUCGGGUGUCAAGG
Sequence,log2 enrichment
UCCUCAAGUCCUGUGCUACACAUCGUAUGUACCGAAUCGGUGGGGUGGUGGGAAAGUAUUAUGUUACGCCGUUCGGAUCUGCACUUCCAG,-0.143
GUCCUGUGCUACACAUCGUAUGUACCGAAUCAAAUUUUUUUAAAUUUAAAUUUUUAAAAAAGUAUUAUGUUACGCCGUUCGGAUCUGCAC,-0.607
UCCUGUGCUACACAUCGUAUGUACCGAAUCGGGGUUUUUGGGGUUUUUGGGGUUUGGGGAAAGUAUUAUGUUACGCCGUUCGGAUCUGCA,1.25
UCCUCAAGUCCUGUGCUACACAUCGUAUGUACCGAAUCGGUGGGGUGGGUGGAAAGUAUUAUGUUACGCCGUUCGGAUCUGCACUUCCAG,-0.0715
UCCUGUGCUACACAUCGUAUGUACCGAAUCGGGGUUUUUGGGGAAAAAGGGGUUUGGGGAAAGUAUUAUGUUACGCCGUUCGGAUCUGCA,1.24
UCAAGUCCUGUGCUACACAUCGUAUGUACCGAAUCGGGUGGGAAAAAGGGUGGGAAAGUAUUAUGUUACGCCGUUCGGAUCUGCACUUCC,0.556
AGUCCUGUGCUACACAUCGUAUGUACCGAAUCGGGGUUUUGGGUUUUGGGGUUUUGGAAAGUAUUAUGUUACGCCGUUCGGAUCUGCACU,-0.209
AAGUCCUGUGCUACACAUCGUAUGUACCGAAUCGGAAAAGGGGAAAAGGAAAAGGGGAAAGUAUUAUGUUACGCCGUUCGGAUCUGCACU,-0.0593
CUCAAGUCCUGUGCUACACAUCGUAUGUACCGAAUCGGGUUUGGGAGGGUGGGAAAGUAUUAUGUUACGCCGUUCGGAUCUGCACUUCCA,1.02
UCCUGUGCUACACAUCGUAUGUACCGAAUCGGGGCCCCCCGGCCCCCCGGCCCCCCGGGGAAAGUAUUAUGUUACGCCGUUCGGAUCUGC,-0.438
UCCUGUGCUACACAUCGUAUGUACCGAAUCGGGUUUUUGGGAAAAAGGGUUUUUUUGGGAAAGUAUUAUGUUACGCCGUUCGGAUCUGCA,-0.0432
AGUCCUGUGCUACACAUCGUAUGUACCGAAUCGGGUUUUUUUGGGUGGGAAAAAGGGAAAGUAUUAUGUUACGCCGUUCGGAUCUGCACU,0.465
AAGUCCUGUGCUACACAUCGUAUGUACCGAAUCGGGUUUUUGGGAAAGGGUUUGGGAAAGUAUUAUGUUACGCCGUUCGGAUCUGCACUU,0.428
CUCAAGUCCUGUGCUACACAUCGUAUGUACCGAAUCGGUUUUUGGUGGUUUGGAAAGUAUUAUGUUACGCCGUUCGGAUCUGCACUUCCA,-0.37

# Set 5
# Target: RNA binding protein fox-1 homolog 2, RRM domain, GST-SBP tag (RBFOX2, Homo sapiens, UniProt O43251-10, residues 100-194)
# Technique: RNA Bind-n-Seq
# Molecule type: RNA
# Matrix: in vitro
# Concentration: 365 nM
# Notes: natural RNA segment, single round, ends assumed
# Reference: no-protein control
# Direction: higher = stronger binding
# All sequences stand within: GGGAGUUCUACAGUCCGACGAUC … UGGAAUUCUCGGGUGCCAA
# Construct (chain): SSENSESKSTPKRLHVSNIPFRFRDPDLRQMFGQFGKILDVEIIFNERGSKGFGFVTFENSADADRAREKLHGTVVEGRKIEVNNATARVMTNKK
Sequence,RBNS enrichment (R)
UCUCAAAAGACUGGCUUAAUUGGAAUAAAAUAGCUUUUUUUUUUUAAGUGUCCCAAAGAUAAGAUAUCUUGGGGUCCACCAUGAGCUUCCAGUUUCAGCCGAGGCAGCAG,0.441
GACGGGGCCAGCUGGACACACGGUGAGAUUUUCUCGUAUGUAAAUAAAAGGCAUUUUGGUAAACGUGGAGGCUGAGAUGUCUCUGUGCCUGCCCUGAGGUUGGAUGUAGC,0.42
UAUUAUGUGAAUGCUACAUUUGUUCUGAACACUUAGGGGCUGCAAAAAUGUAAUAAGAAAUGCAUAUGACUAGAUAGCAAUAGUGUUUUUUUUAGAUGGUAUGCUCUUGA,0.669
AGAUAUUGUUCAGCUUGAGUUGGGUCAUGCCAAACAGUCAUUUAUUUGGUGGGUAGAAAUACAGUCAGGUGGUUAUAGAGCACAUACCUAGCAUAUGUGAAGCCAUGGGU,0.491
CUAGGAGGUUGGCACUAAGACCCAGGACAAUGUUACUUCUCUGUGAUGUGUGGUGACUUCCCUCUGCUGGCUUAUGCAGUGAUGGUGAAUGAACCAGUCAGUGGAAAACU,0.699
UGUCCCUGUGCCUAACACCAGCGUUUGAGGGGCUGGCCUUCCUGCCCUACAGAGGUCUCUGCCGGCUCUUUCCUUGCUCAACCAUGGCUGAAGGAAACCAGUGCAACAGC,0.19
CUAGUGCCUGGCUUGCCACAUGGAAAGCAAGCACAAGGGAGCAGUAUUCCGUAGCAUAUGAUAGCAGAGCAAAUACCGGAUCUGGAUCUAGCUGAUUUCCAUCCAUUGGC,0.272
AUGGCUGGGCAGUUGAGCACCUGCUCUUCACCUGCCCUGGCUAUGGCUGUGGCAAGCUGUGAGCCCUCGCCUUGUCUGGGCCAAUCUGAGGACUGAACUGACCAGAUAGC,0.402
UAGAAACGUGUAUAUUUUUUAUGAAACAUUACAGUUAGAGAUUUUUAAAUAAAGAAUUUUAAAACUCUUUUUGUAUUCAUUUAUUCAAGCACUUAGGCAGUCUUUCAUAG,0.688
UCACACUGAUGGCAGGACACACAAGAGCAGGGUAUUGGUCUGCCCUUCUUCCUCCUGUCCGUCUGAUUUACCUAACUUUGGUCUCGGCUGCUGACUCUUGGAGAGGACCA,0.427
CGUUCCUCACUUUUCCCUUUUCAUUCCCACCCCCUAGACUUUGAUUUUACGGAUAUCUUGCUUCUGUUCCCCAUGGAGCUCCGAAUUCUUGCGUGUGUGUAGAUGAGGGG,0.999
ACUGGUGAAGUGAGUAGGGAUUGUUCCCAGGCAAGCAGCCGUACUCGUCAUGUUUUCUGCGGAAAAGAACAGGCAGGAAAGCUGCUCCGAGCAGUUAGAGAAAAGCCGCC,0.27

# Repeated from above (set 5):
Sequence,RBNS enrichment (R)
UAUUAUGUGAAUGCUACAUUUGUUCUGAACACUUAGGGGCUGCAAAAAUGUAAUAAGAAAUGCAUAUGACUAGAUAGCAAUAGUGUUUUUUUUAGAUGGUAUGCUCUUGA,0.669
GACGGGGCCAGCUGGACACACGGUGAGAUUUUCUCGUAUGUAAAUAAAAGGCAUUUUGGUAAACGUGGAGGCUGAGAUGUCUCUGUGCCUGCCCUGAGGUUGGAUGUAGC,0.42
CGUUCCUCACUUUUCCCUUUUCAUUCCCACCCCCUAGACUUUGAUUUUACGGAUAUCUUGCUUCUGUUCCCCAUGGAGCUCCGAAUUCUUGCGUGUGUGUAGAUGAGGGG,0.999
ACUGGUGAAGUGAGUAGGGAUUGUUCCCAGGCAAGCAGCCGUACUCGUCAUGUUUUCUGCGGAAAAGAACAGGCAGGAAAGCUGCUCCGAGCAGUUAGAGAAAAGCCGCC,0.27
CUAGUGCCUGGCUUGCCACAUGGAAAGCAAGCACAAGGGAGCAGUAUUCCGUAGCAUAUGAUAGCAGAGCAAAUACCGGAUCUGGAUCUAGCUGAUUUCCAUCCAUUGGC,0.272
UAGAAACGUGUAUAUUUUUUAUGAAACAUUACAGUUAGAGAUUUUUAAAUAAAGAAUUUUAAAACUCUUUUUGUAUUCAUUUAUUCAAGCACUUAGGCAGUCUUUCAUAG,0.688
CUAGGAGGUUGGCACUAAGACCCAGGACAAUGUUACUUCUCUGUGAUGUGUGGUGACUUCCCUCUGCUGGCUUAUGCAGUGAUGGUGAAUGAACCAGUCAGUGGAAAACU,0.699
